Measurements gathered from unrelated publications.
Every numbered part comes from another study and shows a few of its results, in no order. Positions count from the first letter of the parent shown.

Series 1 — target: CCNA1, cyclin fold, Cln2 fusion (human); technique: yeast growth competition, sequencing; sample: yeast; setting: weak parent motif; baseline: not given; reading: higher = stronger binding
Parent: REPIN1 docking peptide (human); QSFRGWVALVLHL
Substitution | normalised enrichment score
QSFRGWVAAVLHL [L9A] | -0.868
QSFRGWVALALHL [V10A] | -0.679
QSFRAWVALVLHL [G5A] | -0.0729
QSFRGWVALVLAL [H12A] | 0.0486
QSFRGAVALVLHL [W6A] | -0.62
QAFRGWVALVLHL [S2A] | -0.368

Series 2 — target: ATF7, bZIP domain (human); technique: DHFR protein complementation; sample: yeast; baseline: wild-type JUN-FOS pair; reading: higher = stronger binding
Setting: single substitutions, most at no-binding floor
Parent: JUN, bZIP domain (human); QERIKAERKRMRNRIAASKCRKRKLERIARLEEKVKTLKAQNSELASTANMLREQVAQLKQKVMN; partner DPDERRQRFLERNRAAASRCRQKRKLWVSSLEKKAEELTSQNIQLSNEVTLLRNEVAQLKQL
Substitution | binding fitness [natural log]
V35L | -1.29
M51N | -0.986
T48E | -0.773
K36F | -1.2
M51P | -1.53
A40Q | -0.647
A29H | -0.969
L31K | -1.52
I28V | -0.876
L45Y | -1.34
L38T | -1.37
A29D | -1.1
E44V | -1.06
S47A | -0.688
R53L | -1.47
E33W | -1.18
A29W | -1.05
T37N | -0.794

Series 3 — technique: RNA Bind-n-Seq; form: RNA; sample: in vitro; tested at: not given; setting: RNA with constant flanks, ends assumed; baseline: input RNA pool; reading: higher = stronger binding
Target: RING finger protein unkempt homolog, zinc fingers 1-6, GST-SBP tag (UNK, Homo sapiens, UniProt Q9C0B0, residues 30-357)
Constant ends, left off below: GGGAGUUCUACAGUCCGACGAUC … CAACAGAGGAUUGAGCAUCA
Construct (chain): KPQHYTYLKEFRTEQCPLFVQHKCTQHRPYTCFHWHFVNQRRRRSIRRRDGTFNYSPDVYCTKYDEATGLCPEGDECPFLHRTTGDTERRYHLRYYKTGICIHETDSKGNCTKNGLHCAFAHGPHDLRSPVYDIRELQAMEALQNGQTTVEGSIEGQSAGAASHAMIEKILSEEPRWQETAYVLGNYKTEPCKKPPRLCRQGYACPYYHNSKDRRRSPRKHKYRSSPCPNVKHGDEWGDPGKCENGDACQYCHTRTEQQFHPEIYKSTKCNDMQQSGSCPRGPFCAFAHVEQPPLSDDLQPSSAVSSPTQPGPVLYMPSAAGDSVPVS
Oligonucleotide | bound/input enrichment [ratio]
CCUGCGCCGCCUCCUCCCACCCUGAGCAGAGCCGCCGAGGAUGAUAAACACCCAGGACAGCCGUAUUUUGCCUUUGAGUAACUGUCCCCAGCUCCAGUGCUGCAGGCACAUUGUUCCAGG | 0.216
AACAAGCCCUGCCCAGUGUGCAGACAGCCAAUCCAAAUGAUUGUGCUAACUUACUUCAACCCGCUGACCUGCUCACAAAAAUAGAAUUUUAUAUUUCUAACUAUAUGACCCCCAAAUUAG | 30.6
CGUUUUUUAUUGGAAAUGAGCACACAUUUACACAGGAGACCAAAAUCCACUUGCUAUUUCAACCGCCUGACUGUUUCUGAGCAGGUAGAGAAAUAAACAUGGAAAACAAAGACAGGGUGA | 0.482
GAUCCACAGUGGUCUGAGGAGCAACUCAUUGCUGCAAAAUUCUGUUUUGCUGGCCUUGUUACCGGGCAGACUGAAGUGGACAUCAUGAGUCAUGCCACACAAGCUAUUUUUGAAAUUCUG | 0.363
CUGGCUGUUGAAAGACUGUUGGAGCCUCUUGUUACACAGGUUACAACCCUGGUAAACACCAACCGUAAAGGGCCGUCUAAUAAAAAGAGAGGCCGUUCUAAGAAGGCCCAUGUUUUGGCU | 0.151
CACCAACAGUAUGUGCAGCGGAUAGAGAAGCAGUUUCUUUUGUAUGCAUACUGGACCGGCCUGGGGAUUUUGUCCUCUGUUGGUCUUGGAACAGGACUGCACACCUUUCUGCUUUAUCUG | 0.0479
UUCCCUGGAGAGUUCAUGAAGAGCUGGAAUGACUGCCUCAACAAAGAAGGCUUUGACAAAACCGAUAUCAGUGCAGUUGUGGCAUAUACCAUCGCUGUAAAGGAGGAUGGGGAGCUCAAC | 0.309
GAAUCCUACUCAGGCGGAUUUUGCAACACCAAGCUCACAGCAGCAGCAUCUUAGUCACAGCCGGGCCGUUUUGGGGCUCUGUGGCCAGGGUUUUAUUCACAUGCAGGUUUGGAAAAUGUA | 0.31

Series 4 — technique: DHFR PCA, deep sequencing; sample: yeast; with: (+)-ABA 1.4 µM; baseline: wild-type fitted maximum; reading: higher = stronger binding
Target: ABI1, truncated, D143A, DHFR fusion (Arabidopsis thaliana)
Setting: methotrexate growth selection, single substitutions
Parent: PYL1, truncated, DHFR fusion (Arabidopsis thaliana); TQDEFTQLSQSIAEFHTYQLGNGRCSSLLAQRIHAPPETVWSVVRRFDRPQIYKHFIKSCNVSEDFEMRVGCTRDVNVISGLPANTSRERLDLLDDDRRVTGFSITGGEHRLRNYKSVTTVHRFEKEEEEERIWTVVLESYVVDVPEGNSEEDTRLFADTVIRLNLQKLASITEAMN; partner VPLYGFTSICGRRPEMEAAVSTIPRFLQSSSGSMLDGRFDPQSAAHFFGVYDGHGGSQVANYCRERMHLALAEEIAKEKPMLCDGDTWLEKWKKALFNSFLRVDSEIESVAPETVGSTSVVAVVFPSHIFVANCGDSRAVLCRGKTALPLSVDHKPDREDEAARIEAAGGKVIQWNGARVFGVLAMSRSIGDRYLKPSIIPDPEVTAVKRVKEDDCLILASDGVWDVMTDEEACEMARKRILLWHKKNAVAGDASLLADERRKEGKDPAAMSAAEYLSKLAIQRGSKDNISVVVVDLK
Substitution | relative binding score [%]
L29G | 4.73
R123M | 33.5
D96Q | -2.88
D65A | 29.2
T135Y | -8.95
E64V | 32.3
D48V | -4.54
N165I | 6.73
A84R | 0.647
M176V | 40.8
K168T | 56
V143R | -4.12
L138V | 4.32
Y53T | -0.33
E129S | 64.9
S59L | 5.66

Series 5 — technique: universal PBM; form: double-stranded DNA, one strand shown; sample: in vitro; tested at: not given; reading: higher = stronger binding
Target: Sal-like protein 4, full length isoform B (SALL4, Homo sapiens, UniProt Q9UJQ4-2, residues 1-616)
Setting: 8-mer, flanks averaged, mean of replicates
Construct (chain): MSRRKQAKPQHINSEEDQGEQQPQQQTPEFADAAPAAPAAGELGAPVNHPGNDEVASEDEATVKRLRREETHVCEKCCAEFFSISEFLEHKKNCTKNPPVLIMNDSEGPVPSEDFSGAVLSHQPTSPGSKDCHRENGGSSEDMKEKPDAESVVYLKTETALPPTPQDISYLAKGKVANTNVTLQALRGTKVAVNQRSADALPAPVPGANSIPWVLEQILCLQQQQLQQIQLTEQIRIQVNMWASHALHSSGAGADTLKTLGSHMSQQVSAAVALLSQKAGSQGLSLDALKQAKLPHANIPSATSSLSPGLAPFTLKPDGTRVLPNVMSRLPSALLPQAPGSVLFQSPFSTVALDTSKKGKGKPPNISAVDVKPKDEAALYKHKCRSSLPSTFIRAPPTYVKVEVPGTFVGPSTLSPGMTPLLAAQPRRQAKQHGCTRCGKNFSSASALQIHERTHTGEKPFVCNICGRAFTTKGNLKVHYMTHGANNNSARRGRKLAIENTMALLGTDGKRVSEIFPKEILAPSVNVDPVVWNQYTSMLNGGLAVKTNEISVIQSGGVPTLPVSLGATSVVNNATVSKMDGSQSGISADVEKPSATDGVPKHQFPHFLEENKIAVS
Oligonucleotide | E-score
AGAAAGAA | 0.147
CAATAACA | 0.295
GCGTGTAC | -0.0787
TAATGCTA | 0.277
GGCAGACA | -0.142
CTATTACC | 0.076
TAGACACA | 0.137
GGTCTCCA | -0.143
CATTAAGA | 0.166
GCCTAAGC | -0.17
CGCTAAGA | -0.2
CGCAAACA | 0.0767
AGCCAAGC | -0.242
CACCCTCC | -0.272
ACACCGAT | -0.132
CTACGGAG | -0.157
AAAATTTT | 0.342
GATACTCC | -0.179
CCCAGCCA | -0.142
GCCGTGCA | -0.15
AGCAGCAC | -0.286
CACGTTAA | 0.15
GGCAGCCC | -0.408
ATGACCGA | 0.124
AGTTAGAC | 0.0554
